Measurements from different studies.
Lines come from different studies, so protocols differ. ± marks the error that the study gave.
Organism: human cytomegalovirus

SMILES | test | test system | setting | quantity | value
O=c1c(-c2ccc(O)cc2)coc2cc(O)cc(O)c12 | viral replication, titre reduction | HEL fibroblasts, Towne |  | IC50 | 3.2 ± 0.1 µM
NC(=O)NO | viral spread, GFP reporter | ARPE-19, BADrUL131-Y4 (AD169, GFP) | 14 d | EC50 | 131 ± 18 µM
O=c1c(-c2ccc(O)cc2)coc2cc(O)ccc12 | viral replication, titre reduction | HEL fibroblasts, Towne |  | IC50 | 7.2 µM
COc1cc(C2c3cc4c(cc3C(O)C3COC(=O)C23)OCO4)cc(OC)c1O (stereo not shown) | viral IE2 expression | MRC-5, AD169 IE2-YFP | 18 h post infection, 1 h pretreatment | EC50 | 3.4 µM
Cc1nn(Cc2ccc(O)c(C=O)c2)c(=O)[nH]c1=O | cytopathic effect | HEL fibroblasts, AD-169 |  | EC50 | 63.1 µM
O=c1c(O)c(-c2ccccc2)oc2cc(O)cc(O)c12 | viral replication, titre reduction | HEL fibroblasts, Towne |  | IC50 | > 40 µM
Cc1cn(Cc2ccc(O)c(C=O)c2)c(=O)[nH]c1=O | cytopathic effect | HEL fibroblasts, AD-169 |  | EC50 | > 20 µM
O=C(NO)c1ccc(O)c(O)c1 | viral spread, GFP reporter | MRC-5, BADrUL131-Y4 (AD169, GFP) | 14 d | EC50 | 82 ± 32 µM
O=Cc1cc(Cn2cc(F)c(=O)[nH]c2=O)ccc1O | cytopathic effect | HEL fibroblasts, Davis |  | EC50 | > 100 µM
Nc1ccn(C[C@@H](CO)OCP(=O)(O)OCCOCCOCCOCCOCCOCCO)c(=O)n1 | viral replication | HEL, AD-169 |  | EC50 | 0.6 to 0.95 µM

For quick reference, copied from above:
SMILES | test | test system | setting | quantity | value
Cc1cn(Cc2ccc(O)c(C=O)c2)c(=O)[nH]c1=O | cytopathic effect | HEL fibroblasts, AD-169 |  | EC50 | > 20 µM
